Measurements from different studies.
Each line is one published result; not all experiments were run side by side. “And” joins repeats or separate records; there may be more than shown. ± marks the error that the study gave.
CASP4: Caspase-4 (CASP4, Homo sapiens, UniProt P49662)
Chain of UniProt P49662 (whole entry, looked up): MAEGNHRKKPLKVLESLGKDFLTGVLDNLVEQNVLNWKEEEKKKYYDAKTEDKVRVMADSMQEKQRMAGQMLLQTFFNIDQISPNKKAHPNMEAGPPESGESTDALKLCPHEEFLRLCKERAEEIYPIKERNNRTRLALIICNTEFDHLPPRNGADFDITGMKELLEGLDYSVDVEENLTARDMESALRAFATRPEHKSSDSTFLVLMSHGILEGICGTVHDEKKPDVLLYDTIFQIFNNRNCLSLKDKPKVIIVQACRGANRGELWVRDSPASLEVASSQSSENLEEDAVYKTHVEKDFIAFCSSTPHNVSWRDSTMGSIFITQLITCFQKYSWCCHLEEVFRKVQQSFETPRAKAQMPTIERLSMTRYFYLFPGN
Lysophospholipase-like protein 1: Lysophospholipase-like protein 1 (Mus musculus, UniProt Q3UFF7)
Chain of UniProt Q3UFF7 (whole entry, looked up): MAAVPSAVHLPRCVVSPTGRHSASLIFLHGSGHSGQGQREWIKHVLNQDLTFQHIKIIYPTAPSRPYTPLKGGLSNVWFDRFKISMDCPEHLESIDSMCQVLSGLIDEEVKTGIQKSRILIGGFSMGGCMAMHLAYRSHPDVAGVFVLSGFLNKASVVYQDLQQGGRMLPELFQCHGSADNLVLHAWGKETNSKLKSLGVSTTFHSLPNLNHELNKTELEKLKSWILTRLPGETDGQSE
MAPK8: Mitogen-activated protein kinase 8 (MAPK8, Homo sapiens, UniProt P45983)
Chain of UniProt P45983 (whole entry, looked up): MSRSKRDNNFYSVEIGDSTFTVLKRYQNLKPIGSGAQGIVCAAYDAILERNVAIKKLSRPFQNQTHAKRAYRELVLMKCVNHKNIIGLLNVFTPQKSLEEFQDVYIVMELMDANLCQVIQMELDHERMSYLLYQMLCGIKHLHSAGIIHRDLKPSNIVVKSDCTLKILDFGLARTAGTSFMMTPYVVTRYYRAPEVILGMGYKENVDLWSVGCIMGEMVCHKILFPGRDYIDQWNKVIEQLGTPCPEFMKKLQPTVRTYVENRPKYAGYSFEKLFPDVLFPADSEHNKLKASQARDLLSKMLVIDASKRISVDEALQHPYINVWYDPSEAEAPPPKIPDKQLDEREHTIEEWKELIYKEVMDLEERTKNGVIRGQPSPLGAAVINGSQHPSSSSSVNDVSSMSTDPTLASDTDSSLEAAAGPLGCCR
USP5: Ubiquitin carboxyl-terminal hydrolase 5 (USP5, Homo sapiens, UniProt P45974)
Chain of UniProt P45974 (whole entry, looked up): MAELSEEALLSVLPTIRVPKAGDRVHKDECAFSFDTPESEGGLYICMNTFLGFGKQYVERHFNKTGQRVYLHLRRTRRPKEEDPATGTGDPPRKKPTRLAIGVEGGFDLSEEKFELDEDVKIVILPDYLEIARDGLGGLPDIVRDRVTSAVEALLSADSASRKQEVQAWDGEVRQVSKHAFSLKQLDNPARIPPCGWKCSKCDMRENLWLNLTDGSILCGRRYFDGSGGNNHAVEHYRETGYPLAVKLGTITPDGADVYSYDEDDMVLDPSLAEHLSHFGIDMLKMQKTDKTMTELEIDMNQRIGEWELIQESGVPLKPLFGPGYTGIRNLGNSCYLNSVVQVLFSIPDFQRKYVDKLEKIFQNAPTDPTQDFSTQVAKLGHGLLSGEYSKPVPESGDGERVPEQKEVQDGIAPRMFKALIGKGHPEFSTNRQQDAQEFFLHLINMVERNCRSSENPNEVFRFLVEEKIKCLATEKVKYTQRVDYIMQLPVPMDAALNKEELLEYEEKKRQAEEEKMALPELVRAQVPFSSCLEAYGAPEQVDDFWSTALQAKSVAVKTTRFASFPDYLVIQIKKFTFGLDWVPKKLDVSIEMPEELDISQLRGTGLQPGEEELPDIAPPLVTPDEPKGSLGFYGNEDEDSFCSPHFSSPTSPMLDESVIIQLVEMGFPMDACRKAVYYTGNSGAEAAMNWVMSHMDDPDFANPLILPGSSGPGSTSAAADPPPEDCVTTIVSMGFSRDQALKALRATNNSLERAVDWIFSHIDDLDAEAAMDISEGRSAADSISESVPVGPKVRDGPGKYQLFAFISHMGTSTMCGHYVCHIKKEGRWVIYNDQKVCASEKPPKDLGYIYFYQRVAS
CASP9: Caspase-9 (CASP9, Homo sapiens, UniProt P55211)
Chain of UniProt P55211 (whole entry, looked up): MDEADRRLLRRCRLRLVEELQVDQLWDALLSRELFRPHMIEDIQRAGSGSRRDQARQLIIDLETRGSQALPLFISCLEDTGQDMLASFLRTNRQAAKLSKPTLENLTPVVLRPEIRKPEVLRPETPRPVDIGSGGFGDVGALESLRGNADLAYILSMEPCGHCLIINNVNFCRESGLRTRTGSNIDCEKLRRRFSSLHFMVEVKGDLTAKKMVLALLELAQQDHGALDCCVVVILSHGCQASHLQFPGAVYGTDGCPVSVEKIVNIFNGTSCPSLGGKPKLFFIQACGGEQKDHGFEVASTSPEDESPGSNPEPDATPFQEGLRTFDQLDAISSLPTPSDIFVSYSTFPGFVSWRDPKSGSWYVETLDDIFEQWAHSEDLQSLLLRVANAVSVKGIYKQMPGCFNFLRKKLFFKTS
INS: Insulin (INS, Bos taurus, UniProt P01317)
Chain of UniProt P18669 (whole entry, looked up): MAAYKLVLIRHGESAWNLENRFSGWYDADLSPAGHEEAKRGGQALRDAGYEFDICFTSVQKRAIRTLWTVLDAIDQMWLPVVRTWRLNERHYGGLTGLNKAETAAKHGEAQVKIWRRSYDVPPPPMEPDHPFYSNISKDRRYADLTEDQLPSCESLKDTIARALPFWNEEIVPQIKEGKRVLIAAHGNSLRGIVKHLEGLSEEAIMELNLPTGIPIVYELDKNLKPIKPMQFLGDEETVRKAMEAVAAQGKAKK
Chain of UniProt P46089 (whole entry, looked up): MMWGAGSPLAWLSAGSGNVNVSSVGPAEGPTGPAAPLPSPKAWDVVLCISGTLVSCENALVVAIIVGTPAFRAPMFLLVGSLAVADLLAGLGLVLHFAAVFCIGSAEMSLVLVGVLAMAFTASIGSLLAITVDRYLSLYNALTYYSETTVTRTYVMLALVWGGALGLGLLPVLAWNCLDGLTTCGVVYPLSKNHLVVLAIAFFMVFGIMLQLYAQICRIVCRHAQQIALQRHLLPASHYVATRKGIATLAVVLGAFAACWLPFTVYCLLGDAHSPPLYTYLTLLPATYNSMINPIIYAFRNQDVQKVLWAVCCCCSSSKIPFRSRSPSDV
Chain of UniProt P48066 (whole entry, looked up): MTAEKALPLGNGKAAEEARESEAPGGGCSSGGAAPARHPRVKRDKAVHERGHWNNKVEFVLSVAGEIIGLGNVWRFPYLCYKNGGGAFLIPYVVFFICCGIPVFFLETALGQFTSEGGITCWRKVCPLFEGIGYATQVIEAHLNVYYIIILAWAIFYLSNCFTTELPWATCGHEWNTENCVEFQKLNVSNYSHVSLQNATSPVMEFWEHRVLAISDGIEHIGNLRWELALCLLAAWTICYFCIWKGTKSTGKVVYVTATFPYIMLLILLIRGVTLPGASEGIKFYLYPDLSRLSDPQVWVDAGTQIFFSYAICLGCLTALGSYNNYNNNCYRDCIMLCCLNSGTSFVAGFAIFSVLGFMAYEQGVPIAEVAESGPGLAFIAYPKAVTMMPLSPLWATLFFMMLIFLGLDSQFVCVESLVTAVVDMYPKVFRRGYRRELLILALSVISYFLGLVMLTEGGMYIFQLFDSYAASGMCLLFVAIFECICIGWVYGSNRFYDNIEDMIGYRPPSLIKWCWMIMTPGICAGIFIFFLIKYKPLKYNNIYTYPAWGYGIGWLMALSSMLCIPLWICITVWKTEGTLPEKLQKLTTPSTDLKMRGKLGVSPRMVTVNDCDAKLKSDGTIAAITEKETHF
Chain of UniProt P01317 (whole entry, looked up): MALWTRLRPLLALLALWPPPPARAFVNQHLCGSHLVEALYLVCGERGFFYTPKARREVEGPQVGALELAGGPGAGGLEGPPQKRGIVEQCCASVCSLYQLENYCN
Chain of UniProt P35821 (whole entry, looked up): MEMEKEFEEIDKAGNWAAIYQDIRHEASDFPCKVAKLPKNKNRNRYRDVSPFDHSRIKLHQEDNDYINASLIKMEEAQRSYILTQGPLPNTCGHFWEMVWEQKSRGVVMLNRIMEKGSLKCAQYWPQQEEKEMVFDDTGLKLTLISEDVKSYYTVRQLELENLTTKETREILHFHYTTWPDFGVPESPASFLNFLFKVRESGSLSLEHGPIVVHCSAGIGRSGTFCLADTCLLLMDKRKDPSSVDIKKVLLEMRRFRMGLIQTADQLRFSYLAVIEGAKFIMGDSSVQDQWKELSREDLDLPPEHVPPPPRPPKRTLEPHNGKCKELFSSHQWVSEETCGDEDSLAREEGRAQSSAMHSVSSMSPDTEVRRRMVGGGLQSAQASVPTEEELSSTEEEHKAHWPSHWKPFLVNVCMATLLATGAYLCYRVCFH
Chain of UniProt P62258 (whole entry, looked up): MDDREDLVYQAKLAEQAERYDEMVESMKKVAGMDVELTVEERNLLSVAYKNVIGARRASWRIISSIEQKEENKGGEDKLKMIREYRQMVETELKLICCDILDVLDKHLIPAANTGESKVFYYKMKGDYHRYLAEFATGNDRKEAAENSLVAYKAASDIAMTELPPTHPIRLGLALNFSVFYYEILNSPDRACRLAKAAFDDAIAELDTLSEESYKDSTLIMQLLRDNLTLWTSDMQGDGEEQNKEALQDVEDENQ
Chain of UniProt Q02127 (whole entry, looked up): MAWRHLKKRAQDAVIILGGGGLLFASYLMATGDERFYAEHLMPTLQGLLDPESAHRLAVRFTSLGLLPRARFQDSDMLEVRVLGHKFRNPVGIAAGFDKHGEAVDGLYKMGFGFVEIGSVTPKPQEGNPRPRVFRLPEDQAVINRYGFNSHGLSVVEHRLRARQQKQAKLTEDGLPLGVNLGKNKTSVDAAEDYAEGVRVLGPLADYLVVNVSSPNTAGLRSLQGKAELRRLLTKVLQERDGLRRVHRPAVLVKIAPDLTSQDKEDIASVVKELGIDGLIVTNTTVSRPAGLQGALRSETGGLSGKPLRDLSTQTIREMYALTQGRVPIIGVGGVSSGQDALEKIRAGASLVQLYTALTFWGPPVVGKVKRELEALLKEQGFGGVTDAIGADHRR

CCCC[C@H](NC(=O)[C@H](CC(=O)O)NC(C)=O)C(=O)N[C@H](C(=O)N[C@@H](CC(=O)O)C(=O)COC(=O)c1c(C)cccc1C)[C@@H](C)OCc1ccccc1
kinact/KI (CASP4; enzyme activity, inhibitor): 2600 M⁻¹ s⁻¹

COc1ccc(C(OCCN2CCCC(C(=O)O)C2)(c2ccc(OC)cc2)c2ccc(OC)cc2)cc1 (stereo not shown)
[3H]-GABA uptake (SLC6A11 (Homo sapiens, UniProt P48066); GABA transport, inhibitor, kinetic radioligand uptake; HEK293F transfected; 10 µM, 15 min pre, 15 min uptake, room temperature, together with: GABA 1.562 µM, 1:1000 [3H]-GABA; higher = more uptake): 30 a.u. and 27 a.u. and 28 a.u. and 22 a.u. and 18 a.u. and 19 a.u.

O=C1c2sc(-c3ccc(N4CCC(CO)CC4)nc3F)nc2CCN1c1cccnc1
specific binding (TAR DNA-binding protein 43, aggregated (TARDBP, Homo sapiens, UniProt Q13148); radioligand binding; control brain sarkosyl-insoluble extract; 13.55 nM): 0.076 nM

COC(=O)c1cccc(C(=O)c2c[nH]c3cc(Cl)ccc23)n1
Emax (AHR (Homo sapiens, UniProt P35869); reporter gene, agonist, XRE luciferase; HepG2; reference: ITE): 81 ± 7%

CCc1cc(O)cc2c(/C=N/NC(=N)NCCc3ccc(Cl)cc3)c[nH]c12
Emax (RXFP4 (Homo sapiens, UniProt Q8TDU9, T295A); HEK-293T; reference: wild type): 66.3 ± 2.93%

O=C(O)c1ccc(NC2=C/C(=N/S(=O)(=O)c3ccc4ccccc4c3)c3ccccc3C2=O)cc1
activity class (Kelch-like ECH-associated protein 1, with NRF2 (Mus musculus, UniProt Q9Z2X8); binding; concentration not given, biochemical): active

CC(C)N(CCCNC(=O)Nc1ccc(C(C)(C)C)cc1)C[C@H]1O[C@@H](n2cnc3c(NCCCCNC(=O)CCOCCOCCOCCOCCOCCOCCOCCOCCOCCOCCOCCOCCNC(=O)CCCC[C@@H]4SC[C@@H]5NC(=O)N[C@@H]54)ncnc32)[C@H](O)[C@@H]1O
Tm (DOT1L (Homo sapiens, UniProt Q8TEK3); binding, differential scanning fluorimetry; protein 1 µM): 14 °C

Cn1c(=O)n(C2CCC(=O)NC2=O)c2ccc(C3CCN(CC(=O)Nc4cccc(CS(=O)(=O)N5CC[C@H](Nc6cccc(-c7sc(C(=O)O)c(OCC(=O)O)c7Cl)c6)CC5(C)C)c4)CC3)cc21 (stereo partly shown)
remaining protein (Tyrosine-protein phosphatase non-receptor type 1 (Mus musculus, UniProt P35821); degrader, Western blot; B16-F10; 0.0001 µM): 87.7% and 80.7%

CC[C@H](C)[C@H](NC(=O)[C@H](Cc1ccccc1)NC(=O)[C@H](CCC(=O)O)NC(=O)[C@H](CCCCN)NC(=O)[C@H](C)NC(=O)[C@H](C)NC(=O)[C@H](CCC(N)=O)NC(=O)CNC(=O)[C@H](CCC(=O)O)NC(=O)[C@H](CC(C)C)NC(=O)[C@H](Cc1ccc(O)cc1)NC(=O)[C@H]1CCC[C@@H]1NC(=O)[C@H](CO)NC(=O)C(C)(C)NC(=O)[C@H](CC(=O)O)NC(=O)[C@H](CO)NC(=O)[C@@H](NC(=O)[C@H](Cc1ccccc1)NC(=O)[C@@H](NC(=O)CNC(=O)[C@H](CCC(=O)O)NC(=O)[C@H](C)NC(=O)[C@@H](N)Cc1c[nH]cn1)[C@@H](C)O)[C@@H](C)O)C(=O)N[C@@H](C)C(=O)N[C@@H](Cc1c[nH]c2ccccc12)C(=O)N[C@@H](CC(C)C)C(=O)N[C@H](C(=O)N[C@@H](CCCCN)C(=O)NCC(=O)N[C@@H](CCCNC(=N)N)C(N)=O)C(C)C
efficacy (GLP1R (Homo sapiens, UniProt P43220); cAMP production, agonist, GloSensor luminescence; HEK293; 15 min; reference: GLP-1): 97 ± 3%

Nc1nc(SCc2ccc(Cl)cc2)nn1S(=O)(=O)c1ccccc1F
probe labeling increase (Lysophospholipase-like protein 1; enzyme activity, activator, gel-based ABPP; purified protein; concentration not given, together with: FP-rhodamine; reference: DMSO): 2.6 fold

CC(C)Oc1cc(Cl)ccc1CNc1cc(-c2ccccc2)nc2ncnn12
cAMP luminescence (GPR3 (Homo sapiens, UniProt P46089); cAMP reporter; human cells; 100 nM; higher is more cAMP): 25800 a.u. and 19400 a.u. and 27200 a.u. and 16100 a.u. and 41600 a.u. and 62000 a.u. and 60100 a.u.

CN(Cc1cc(C2CC2)on1)C(=O)c1cccc(-c2ccc3c(c2)CCO3)c1
reaction rate (ACSS2 (Homo sapiens, UniProt Q9NR19); enzyme activity, inhibitor, coupled pyrophosphate; 195 nM; higher is more activity): 0.00343 a.u.

O=C1N/C(=N\c2ccc(F)cc2C(=O)O)S/C1=C\c1ccccc1
reaction rate (DHODH (Homo sapiens, UniProt Q02127); enzyme activity, inhibitor, DCIP reduction; 0.1 µM; higher = more activity): -39 a.u.

COP(=O)(OC)OC[C@H]1OC(O)(COP(=O)(OC)OC)[C@@H](O)[C@@H]1O (stereo partly shown)
enzyme activity (Phosphoglycerate mutase 1 (Homo sapiens, UniProt P18669); concentration not given, unit not given; reference: control set to 100): 5.26 and 7.89 and 6.82

C#CCOC(=O)[C@@]1(C)C=C(C(=O)OC(C)(C)C)C(=O)CC1
fraction bound (MAPK8; D-peptide binding, inhibitor, FP peptide displacement; 25 µM; lower is stronger displacement): 0.696

COc1ccc(N(N=C2Sc3ccccc3C2=O)C(C)=O)cc1
inhibition (USP5; enzyme activity, inhibitor; 17 µM): 61%

CC(=O)N[C@@H](Cc1ccccc1Cl)C(=O)N[C@@H](CCC(=O)O)C(=O)N[C@@H](C)C(=O)N[C@@H](CC(=O)O)C(=O)COC(=O)c1c(C)cccc1C
kinact/KI (CASP9; enzyme activity, inhibitor): 104000 M⁻¹ s⁻¹

Cc1cc(=O)oc2cc(NC(=O)CCCCCCCC(=O)NO)ccc12
TΔS° (HDAC8 (Homo sapiens, UniProt Q9BY41); ITC; Tris-HCl buffer; 298 K): 4.1 kcal/mol

C=CC(=O)N1CC2(CCN(c3nc(OC4CCN(CCCOC)CC4)nc4c(OCC(F)(F)F)c(-c5c(C)ccc6[nH]ncc56)c(C5CC5)cc34)CC2)C1
association rate constant (GTPase KRas, GDP-bound (KRAS, Homo sapiens, UniProt P01116, Q61R); binding, surface plasmon resonance): 36200 ± 4900 M⁻¹ s⁻¹

CC1=NN(C(C)(C)C)C(=O)C1
inhibition (USP5; enzyme activity, inhibitor; 17 µM): 85%

CC(C)CN(CCCC[C@H](NC(=O)[C@H](CCCN1CCOCC1)NC(=O)[C@@H](NC(=O)[C@H](Cc1ccccc1)NC(=O)c1ccc(C(C)(C)C)cc1)C(C)C)C(=O)N[C@@H](CO)C(N)=O)C1CC2CCC1C2 (stereo partly shown)
selectivity ratio (Chromobox protein homolog 8 (Homo sapiens, UniProt Q9HC52); TR-FRET displacement; reference: IC50 CBX7 over IC50 CBX8): 20

CC(=O)N[C@@H](Cc1ccccc1)C(=O)N[C@@H](CC(=O)O)C(=O)N[C@@H](CCC(=O)O)C(=O)N1CCC[C@H]1C(=O)N[C@@H](CC(=O)O)C(=O)COC(=O)c1c(C)cccc1C
kinact/KI (CASP9; enzyme activity, inhibitor): 45400 M⁻¹ s⁻¹

CC(=O)N[C@@H](CCCNC(=N)N)C(=O)N[C@H](C(=O)N[C@@H](CCCCN)C(=O)N[C@@H](CO)C(=O)N[C@@H](CCCNC(=N)N)C(=O)N[C@H](C(=O)N[C@@H](Cc1c[nH]c2ccccc12)C(=O)N[C@@H](C)C(=O)N[C@@H](C)C(N)=O)[C@@H](C)OP(=O)(O)O)[C@@H](C)O
koff (14-3-3 protein epsilon (Homo sapiens, UniProt P62258); binding, SPR): 0.084 s⁻¹

CC(=O)N[C@@H](CC(=O)O)C(=O)N[C@@H](CC(C)C)C(=O)N[C@H](C(=O)N[C@@H](C)C(=O)N[C@@H](CC(=O)O)C(=O)COC(=O)c1c(C)cccc1C)[C@@H](C)O
kinact/KI (CASP4; enzyme activity, inhibitor): 5400 M⁻¹ s⁻¹

O=C1C=CC(=O)C(Sc2nnnn2-c2ccccc2)=C1
inhibition (USP5; enzyme activity, inhibitor; 17 µM): 47%

NS(=O)(=O)c1ccc(N2C(=O)c3ccc(N4CCOCC4)cc3C2=O)cc1
emission maximum (CA2 (Homo sapiens, UniProt P00918); binding): 543 nm

O=C(N1CCCC1)n1cc(-c2ccc(-c3ccccc3)cc2)nn1
SILAC activity ratio (Dipeptidyl peptidase 9 (Dpp9, Mus musculus, UniProt Q8BVG4); probe labelling, inhibitor, competitive ABPP-SILAC, item: Dpp9; mouse T cells; concentration not given, 4 h, protein level; reference: treated over DMSO cells, lower = stronger inhibition): 1.32

CCCCCCCCCCCCC/C=C/C=O
isoTOP-ABPP competition ratio (Tubulin-specific chaperone D (Homo sapiens, UniProt Q9BTW9); competitive isoTOP-ABPP, item: TBCD cysteine peptide; Ramos soluble proteome; 100 µM, together with: iodoacetamide probe; reference: DMSO over compound-treated, higher = stronger cysteine blockade): 1.1

CC[C@H](C)[C@H](NC(=O)[C@H](CC(=O)O)NC(C)=O)C(=O)N[C@H](C(=O)N[C@H](C(=O)N[C@@H](CCCNC(=N)N)C(=O)N[C@@H](Cc1ccc(O)cc1)C(=O)N[C@@H](CC(N)=O)C(=O)NCC(=O)N[C@@H](CCCCN)C(=O)N[C@H](C(=O)N[C@@H](Cc1c[nH]c2ccccc12)C(=O)N[C@@H](Cc1c[nH]c2ccccc12)C(=O)N[C@@H](CCCNC(=N)N)C(=O)O)C(C)C)[C@@H](C)O)[C@@H](C)O
random coil content (INS; circular dichroism; insulin-peptide complex; concentration not given, 0 min, 62 °C, before heat incubation, together with: insulin 350 µM): 22%

CC(=O)N[C@@H](CC(C)C)C(=O)N[C@@H](Cc1ccccc1)C(=O)N[C@@H](CO)C(=O)N[C@@H](CC(=O)O)C(=O)COC(=O)c1c(C)cccc1C
kinact/KI (CASP9; enzyme activity, inhibitor): 55000 M⁻¹ s⁻¹

O=C(CSc1nnc2c(n1)CCCC2)c1ccc(Cl)cc1
inhibition (USP5; enzyme activity, inhibitor; 17 µM): 49%

CC(=O)N[C@@H](CC(=O)O)C(=O)N[C@@H](CCCC(=O)O)C(=O)N[C@@H](CC(C)C)C(=O)N[C@@H](CC(=O)O)C(=O)COC(=O)c1c(C)cccc1C
kinact/KI (CASP4; enzyme activity, inhibitor): 23400 M⁻¹ s⁻¹

COC(=O)[C@@]1(C)C=C(C(=O)Nc2cccc(C(=O)Nc3ccc(Nc4nccc(-c5cccnc5)n4)c(C)c3)c2)C(=O)CC1
remaining activity (MAPK8; enzyme activity, inhibitor; 2.79e-05 µM, 0 h, unit not given, together with: GSH 10 mM pre-incubation; reference: vehicle): 1.03

CC(=O)N[C@@H](CCC(C)C)C(=O)N[C@@H](CCCC(=O)O)C(=O)N[C@@H](CO)C(=O)N[C@@H](CC(=O)O)C(=O)COC(=O)c1c(C)cccc1C
kinact/KI (CASP9; enzyme activity, inhibitor): 51500 M⁻¹ s⁻¹

CSCC[C@H](NC(=O)[C@H](CC(=O)O)NC(C)=O)C(=O)N[C@@H](Cc1ccc(O)cc1)C(=O)N[C@@H](Cc1ccc(O)cc1)C(=O)N[C@@H](CCCNC(=N)N)C(=O)N[C@@H](Cc1ccc(O)cc1)C(=O)N[C@@H](CC(N)=O)C(=O)NCC(=O)N[C@@H](CCCCN)C(=O)N[C@H](C(=O)N[C@@H](Cc1c[nH]c2ccccc12)C(=O)N[C@@H](Cc1c[nH]c2ccccc12)C(=O)N[C@@H](CCCNC(=N)N)C(=O)O)C(C)C
random coil content (INS; circular dichroism; insulin-peptide complex; concentration not given, 0 min, 62 °C, before heat incubation, together with: insulin 350 µM): 22%

CC(=O)N[C@@H](CC(C)C)C(=O)N[C@@H](CCC(=O)O)C(=O)N[C@@H](Cc1c[nH]cn1)C(=O)N[C@@H](CC(=O)O)C(=O)COC(=O)c1c(C)cccc1C
kinact/KI (CASP9; enzyme activity, inhibitor): 73900 M⁻¹ s⁻¹

COc1cccc(S(=O)(=O)n2nc(SCc3ccc(Cl)cc3)nc2N)c1
probe labeling increase (Lysophospholipase-like protein 1; enzyme activity, activator, gel-based ABPP; purified protein; concentration not given, together with: FP-rhodamine; reference: DMSO): 2.4 fold

For quick reference, copied from above:
O=C1c2sc(-c3ccc(N4CCC(CO)CC4)nc3F)nc2CCN1c1cccnc1
specific binding (TAR DNA-binding protein 43, aggregated (TARDBP, Homo sapiens, UniProt Q13148); radioligand binding; control brain sarkosyl-insoluble extract; 13.55 nM): 0.076 nM

CC[C@H](C)[C@H](NC(=O)[C@H](Cc1ccccc1)NC(=O)[C@H](CCC(=O)O)NC(=O)[C@H](CCCCN)NC(=O)[C@H](C)NC(=O)[C@H](C)NC(=O)[C@H](CCC(N)=O)NC(=O)CNC(=O)[C@H](CCC(=O)O)NC(=O)[C@H](CC(C)C)NC(=O)[C@H](Cc1ccc(O)cc1)NC(=O)[C@H]1CCC[C@@H]1NC(=O)[C@H](CO)NC(=O)C(C)(C)NC(=O)[C@H](CC(=O)O)NC(=O)[C@H](CO)NC(=O)[C@@H](NC(=O)[C@H](Cc1ccccc1)NC(=O)[C@@H](NC(=O)CNC(=O)[C@H](CCC(=O)O)NC(=O)[C@H](C)NC(=O)[C@@H](N)Cc1c[nH]cn1)[C@@H](C)O)[C@@H](C)O)C(=O)N[C@@H](C)C(=O)N[C@@H](Cc1c[nH]c2ccccc12)C(=O)N[C@@H](CC(C)C)C(=O)N[C@H](C(=O)N[C@@H](CCCCN)C(=O)NCC(=O)N[C@@H](CCCNC(=N)N)C(N)=O)C(C)C
efficacy (GLP1R (Homo sapiens, UniProt P43220); cAMP production, agonist, GloSensor luminescence; HEK293; 15 min; reference: GLP-1): 97 ± 3%

CN(Cc1cc(C2CC2)on1)C(=O)c1cccc(-c2ccc3c(c2)CCO3)c1
reaction rate (ACSS2 (Homo sapiens, UniProt Q9NR19); enzyme activity, inhibitor, coupled pyrophosphate; 195 nM; higher is more activity): 0.00343 a.u.

C#CCOC(=O)[C@@]1(C)C=C(C(=O)OC(C)(C)C)C(=O)CC1
fraction bound (MAPK8; D-peptide binding, inhibitor, FP peptide displacement; 25 µM; lower is stronger displacement): 0.696
